Published values pooled from the literature.
Parts stem from different laboratories: compare values within a part only. Substitutions count along the parent as printed.
Chain of UniProt Q8RYC6 (whole entry, looked up): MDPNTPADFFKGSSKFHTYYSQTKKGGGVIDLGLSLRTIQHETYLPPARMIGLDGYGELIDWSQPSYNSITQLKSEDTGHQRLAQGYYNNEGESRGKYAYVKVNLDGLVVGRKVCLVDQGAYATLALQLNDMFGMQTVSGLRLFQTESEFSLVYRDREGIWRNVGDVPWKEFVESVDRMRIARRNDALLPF
Chain of UniProt Q9ZPY6 (whole entry, looked up): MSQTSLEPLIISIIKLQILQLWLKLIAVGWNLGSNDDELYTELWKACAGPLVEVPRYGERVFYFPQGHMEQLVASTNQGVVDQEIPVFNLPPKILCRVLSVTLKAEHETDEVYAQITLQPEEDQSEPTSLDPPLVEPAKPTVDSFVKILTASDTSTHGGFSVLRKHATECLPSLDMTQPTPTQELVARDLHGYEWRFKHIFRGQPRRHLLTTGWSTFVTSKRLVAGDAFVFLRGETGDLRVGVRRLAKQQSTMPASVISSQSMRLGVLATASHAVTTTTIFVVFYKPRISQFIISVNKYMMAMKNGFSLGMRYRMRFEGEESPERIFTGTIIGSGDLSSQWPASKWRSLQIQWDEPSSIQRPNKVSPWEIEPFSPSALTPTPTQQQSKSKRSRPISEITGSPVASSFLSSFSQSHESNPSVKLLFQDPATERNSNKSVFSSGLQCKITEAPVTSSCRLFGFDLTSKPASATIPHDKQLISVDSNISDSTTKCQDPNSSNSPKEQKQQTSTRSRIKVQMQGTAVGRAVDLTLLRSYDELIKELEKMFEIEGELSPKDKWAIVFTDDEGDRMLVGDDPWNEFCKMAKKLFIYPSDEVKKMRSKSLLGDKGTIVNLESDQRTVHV
Chain of UniProt Q9FX25 (whole entry, looked up): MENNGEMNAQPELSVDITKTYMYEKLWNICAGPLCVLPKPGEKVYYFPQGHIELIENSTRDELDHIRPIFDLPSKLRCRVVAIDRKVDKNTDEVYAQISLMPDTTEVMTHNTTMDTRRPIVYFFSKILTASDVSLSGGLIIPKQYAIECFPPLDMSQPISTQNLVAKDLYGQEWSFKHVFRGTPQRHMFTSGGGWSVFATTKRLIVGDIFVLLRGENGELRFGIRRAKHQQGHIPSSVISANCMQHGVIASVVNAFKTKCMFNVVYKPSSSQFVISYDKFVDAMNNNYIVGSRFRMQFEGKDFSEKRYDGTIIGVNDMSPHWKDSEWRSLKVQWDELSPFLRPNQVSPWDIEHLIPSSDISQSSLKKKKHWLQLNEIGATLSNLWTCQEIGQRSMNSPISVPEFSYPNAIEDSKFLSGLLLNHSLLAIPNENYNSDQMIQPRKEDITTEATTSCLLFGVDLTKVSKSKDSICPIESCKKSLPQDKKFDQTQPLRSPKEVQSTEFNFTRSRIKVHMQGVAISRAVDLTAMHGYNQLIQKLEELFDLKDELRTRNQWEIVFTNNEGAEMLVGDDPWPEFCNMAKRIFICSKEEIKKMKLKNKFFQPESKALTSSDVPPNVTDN
Chain of UniProt Q9C8N7 (whole entry, looked up): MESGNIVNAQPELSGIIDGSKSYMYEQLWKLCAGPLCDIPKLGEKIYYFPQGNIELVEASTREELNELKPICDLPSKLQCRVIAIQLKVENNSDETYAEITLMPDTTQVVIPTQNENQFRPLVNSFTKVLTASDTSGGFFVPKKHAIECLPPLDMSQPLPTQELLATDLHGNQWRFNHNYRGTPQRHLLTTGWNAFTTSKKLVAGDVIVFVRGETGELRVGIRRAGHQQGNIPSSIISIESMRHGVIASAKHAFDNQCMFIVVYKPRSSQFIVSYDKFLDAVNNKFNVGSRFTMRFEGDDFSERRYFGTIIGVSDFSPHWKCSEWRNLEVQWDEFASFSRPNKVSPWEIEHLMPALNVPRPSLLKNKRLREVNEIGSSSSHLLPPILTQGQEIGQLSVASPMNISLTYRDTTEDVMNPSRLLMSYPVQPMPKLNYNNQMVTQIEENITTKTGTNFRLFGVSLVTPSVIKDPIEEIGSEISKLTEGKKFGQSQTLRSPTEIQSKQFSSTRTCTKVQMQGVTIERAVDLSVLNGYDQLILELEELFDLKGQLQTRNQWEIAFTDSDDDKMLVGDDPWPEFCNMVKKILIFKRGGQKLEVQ
Chain of UniProt O24408 (whole entry, looked up): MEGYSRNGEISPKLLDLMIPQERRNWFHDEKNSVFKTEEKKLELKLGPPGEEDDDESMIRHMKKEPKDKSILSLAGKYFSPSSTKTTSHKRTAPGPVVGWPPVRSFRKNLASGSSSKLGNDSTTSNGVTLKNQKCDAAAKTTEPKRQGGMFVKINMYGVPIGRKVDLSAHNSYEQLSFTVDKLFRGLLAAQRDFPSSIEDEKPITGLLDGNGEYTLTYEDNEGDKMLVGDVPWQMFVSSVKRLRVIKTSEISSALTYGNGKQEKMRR
Chain of UniProt P93022 (whole entry, looked up): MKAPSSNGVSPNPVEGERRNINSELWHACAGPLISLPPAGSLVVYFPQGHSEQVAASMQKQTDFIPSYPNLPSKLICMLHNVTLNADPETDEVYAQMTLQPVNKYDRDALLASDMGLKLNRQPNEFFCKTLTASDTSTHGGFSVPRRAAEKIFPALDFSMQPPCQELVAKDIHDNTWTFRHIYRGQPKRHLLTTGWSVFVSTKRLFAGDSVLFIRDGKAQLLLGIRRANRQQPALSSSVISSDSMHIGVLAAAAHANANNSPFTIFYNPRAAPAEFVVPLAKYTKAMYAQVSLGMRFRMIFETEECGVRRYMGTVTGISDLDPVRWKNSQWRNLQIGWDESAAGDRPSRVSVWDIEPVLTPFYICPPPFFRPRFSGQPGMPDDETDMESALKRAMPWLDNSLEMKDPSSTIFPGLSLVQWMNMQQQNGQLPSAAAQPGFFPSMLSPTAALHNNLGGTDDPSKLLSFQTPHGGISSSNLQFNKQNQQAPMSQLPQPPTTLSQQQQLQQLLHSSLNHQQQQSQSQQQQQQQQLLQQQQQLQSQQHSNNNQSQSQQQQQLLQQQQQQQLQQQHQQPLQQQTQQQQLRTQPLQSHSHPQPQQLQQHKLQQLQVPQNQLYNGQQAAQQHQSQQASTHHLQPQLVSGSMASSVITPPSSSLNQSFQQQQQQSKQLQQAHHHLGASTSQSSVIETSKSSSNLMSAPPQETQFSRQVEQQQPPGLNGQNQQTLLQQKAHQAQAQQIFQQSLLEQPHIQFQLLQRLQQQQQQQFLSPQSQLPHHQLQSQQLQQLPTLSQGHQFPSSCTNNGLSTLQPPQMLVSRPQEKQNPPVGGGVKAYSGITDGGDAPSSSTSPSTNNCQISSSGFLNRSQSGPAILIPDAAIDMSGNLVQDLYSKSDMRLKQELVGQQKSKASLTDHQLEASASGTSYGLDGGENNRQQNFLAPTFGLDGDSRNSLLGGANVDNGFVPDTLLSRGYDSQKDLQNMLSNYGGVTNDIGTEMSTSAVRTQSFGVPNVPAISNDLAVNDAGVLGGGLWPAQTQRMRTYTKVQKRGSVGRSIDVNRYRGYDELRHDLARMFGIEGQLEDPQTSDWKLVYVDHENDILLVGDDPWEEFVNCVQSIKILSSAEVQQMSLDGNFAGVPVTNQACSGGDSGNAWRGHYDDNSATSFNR
Chain of UniProt O24409 (whole entry, looked up): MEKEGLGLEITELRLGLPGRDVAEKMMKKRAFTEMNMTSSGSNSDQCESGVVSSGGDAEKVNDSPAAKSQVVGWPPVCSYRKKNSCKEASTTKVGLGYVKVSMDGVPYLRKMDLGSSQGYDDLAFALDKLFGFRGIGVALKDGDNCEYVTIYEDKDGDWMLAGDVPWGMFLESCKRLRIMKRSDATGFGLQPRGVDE

Study 1
Target: CCNE2, cyclin fold, Cln2 fusion (human)
Technique: yeast growth competition, sequencing
Medium: yeast
Setting: weak parent motif
Relative to: not given
Reading: higher = stronger binding
Starting sequence: BORA docking peptide (human); SSLRRKLFLDGNG; partner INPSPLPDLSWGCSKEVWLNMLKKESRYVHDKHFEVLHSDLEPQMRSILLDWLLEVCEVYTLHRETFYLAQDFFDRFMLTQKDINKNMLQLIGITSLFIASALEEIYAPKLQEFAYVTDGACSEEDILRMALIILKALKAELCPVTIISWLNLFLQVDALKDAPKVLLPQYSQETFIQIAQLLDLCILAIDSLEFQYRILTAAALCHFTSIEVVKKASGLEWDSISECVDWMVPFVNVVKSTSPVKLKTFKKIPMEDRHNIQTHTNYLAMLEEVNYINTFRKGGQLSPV
`R5A L7A` — result for “normalised enrichment score”: -0.276.
`R5K F8L` — result for “normalised enrichment score”: 0.588.
Under “normalised enrichment score”, `N12A` is recorded as 1.04.
For `G11A`, “normalised enrichment score” read 1.46.
`L9A` — result for “normalised enrichment score”: -0.0955.
`L3A`: “normalised enrichment score” 3.08.
`L9F` — result for “normalised enrichment score”: 1.32.
`F8A` — result for “normalised enrichment score”: 0.835.
Under “normalised enrichment score”, `R5K L9F` is recorded as 1.06.
`G13A`: “normalised enrichment score” 0.526.
Under “normalised enrichment score”, `L7A` is recorded as -0.134.

Study 2
Target: ABI1, truncated, D143A, DHFR fusion (Arabidopsis thaliana)
Technique: DHFR PCA, deep sequencing
Medium: yeast
Setting: methotrexate growth selection, single substitutions
Together with: (+)-ABA 17 µM
Relative to: wild-type fitted maximum
Reading: higher = stronger binding
Starting sequence: PYL1, truncated, DHFR fusion (Arabidopsis thaliana); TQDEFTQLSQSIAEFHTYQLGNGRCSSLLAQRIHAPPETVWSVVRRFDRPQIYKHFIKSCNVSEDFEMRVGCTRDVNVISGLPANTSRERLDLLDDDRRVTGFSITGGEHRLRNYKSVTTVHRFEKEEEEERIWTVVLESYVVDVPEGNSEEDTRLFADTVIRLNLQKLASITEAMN
`Y115C` — result for “relative binding score”: 14.9%.
`I12A`: “relative binding score” 20.2%.
`F124Q`: “relative binding score” 76.3%.
For `R155K`, “relative binding score” read 86.9%.
Under “relative binding score”, `T119M` is recorded as 74.4%.
`T106A`: “relative binding score” 27.4%.
For `E128D`, “relative binding score” read 106%.
`F157W` — result for “relative binding score”: 2.39%.
`F66D` — result for “relative binding score”: 66%.
`W41A` — result for “relative binding score”: -21.4%.
For `V76A`, “relative binding score” read 9.68%.
`T173Q`: “relative binding score” -8.3%.

Study 3
Target: Histone acetyltransferase KAT6A, winged helix 1, GST fusion (KAT6A, Homo sapiens, UniProt Q92794, residues 1-85)
Technique: protein binding microarray
Form: double-stranded DNA, one strand shown
Medium: in vitro
Concentration: not given
Setting: 8-mer, flanks averaged, mean of 2 arrays, mostly near background
Relative to: not given
Reading: higher = stronger binding
Residues (chain): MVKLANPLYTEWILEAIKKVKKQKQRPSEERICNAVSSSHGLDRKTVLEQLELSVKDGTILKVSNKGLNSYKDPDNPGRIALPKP
`ACGCGTTG` gave an E-score of 0.339.
The E-score of `ATAGAACG` is reported as -0.0257.
`CACTACCC` gave an E-score of -0.0119.
The E-score of `CACTGCTC` is reported as -0.146.
`ACGAGCGC` has an E-score of 0.314.
The E-score of `CCTGGCAA` is reported as -0.185.
For `CCGTGTCG`, the E-score was 0.323.
`ATGATGGG` gave an E-score of -0.244.
With `CCCAAGTC` the E-score was -0.172.
`GAATTCTC` has an E-score of -0.0548.
`ATTATCAC` gave an E-score of 0.0532.
For `CCACTACG`, the E-score was 0.0279.
`GTAATACA` has an E-score of 0.0266.
The E-score of `ACTGCACA` is reported as -0.277.
For `GAATACGC`, the E-score was 0.199.
`GCTACCCA` has an E-score of -0.0422.

Study 4
Target: Sal-like protein 4, full length isoform B (SALL4, Homo sapiens, UniProt Q9UJQ4-2, residues 1-616)
Technique: universal PBM
Form: double-stranded DNA, one strand shown
Medium: in vitro
Concentration: not given
Setting: 8-mer, flanks averaged, mean of replicates
Reading: higher = stronger binding
The E-score of `AACGTCGC` is reported as -0.236.
For `ATAGGTCA`, the E-score was 0.17.
For `GCGGTCAA`, the E-score was -0.0696.
For `CTGATGGC`, the E-score was -0.182.
`TGGATCCA` has an E-score of 0.151.
`AGTACTGA` has an E-score of 0.104.
For `ACAGTGTC`, the E-score was -0.117.
For `ACCCACCG`, the E-score was -0.172.
The E-score of `AGAACTGG` is reported as -0.126.
For `GTAAAGAC`, the E-score was 0.0541.
With `CGCTGCCC` the E-score was -0.293.
With `ATTGCAAT` the E-score was 0.182.
With `ATCTAGCG` the E-score was -0.00448.
With `GTGGACAC` the E-score was -0.0981.
`ACGAGGCG` gave an E-score of -0.162.
With `AAGTCGTA` the E-score was 0.112.
`ACGCCCGG` has an E-score of -0.326.
`AAGAGTCA` gave an E-score of 0.114.

Study 5
Target: RING finger protein unkempt homolog, zinc fingers 1-6, GST-SBP tag (UNK, Homo sapiens, UniProt Q9C0B0, residues 30-357)
Chain of UniProt Q9C0B0 (30-357, looked up): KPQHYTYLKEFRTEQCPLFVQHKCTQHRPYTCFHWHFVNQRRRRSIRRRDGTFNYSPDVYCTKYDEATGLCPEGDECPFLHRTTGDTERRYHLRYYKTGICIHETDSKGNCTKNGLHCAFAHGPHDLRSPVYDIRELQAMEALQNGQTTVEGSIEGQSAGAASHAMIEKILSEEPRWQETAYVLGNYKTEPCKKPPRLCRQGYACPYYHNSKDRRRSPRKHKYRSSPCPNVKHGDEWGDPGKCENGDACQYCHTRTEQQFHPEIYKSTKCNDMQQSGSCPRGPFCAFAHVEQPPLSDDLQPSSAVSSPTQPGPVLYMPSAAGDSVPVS
Technique: RNA Bind-n-Seq
Form: RNA
Medium: in vitro
Concentration: not given
Setting: RNA with constant flanks, human-mouse chimeric sites, ends assumed
Relative to: input RNA pool
Reading: higher = stronger binding
For `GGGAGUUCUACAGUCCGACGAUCAAAGUGAUGACUAUGUUUGUCCAACGACAGGUAUUUUCGGAGAGCAAAGAUGAGAUUGCGUUAGUCCUGUUUGGUACAGAUGGCACUGACAAUCCCCUUGCUGGCAAGGACCAGUAUCAGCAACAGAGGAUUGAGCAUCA`, the bound/input enrichment was 0.191 ratio.
With `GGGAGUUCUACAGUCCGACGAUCAGGAGGAGGUUAAAGGGUGAGAGUGGGGUGGAAGACUGUGUCAUGGCUCUGGAGACACUGUUCAGUGUCCUGCUUUCUCUGUGCAGACUUAUGGCUCCCUACACACCCUUUCUGACUGAGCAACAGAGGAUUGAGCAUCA` the bound/input enrichment was 0.0511 ratio.
For `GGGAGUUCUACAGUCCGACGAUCAUGGAGAAGGAUUCUCUGCCCCGCUUUGUGCGCUCUGAGUUUUAUCAGGAGCUAAUCAAGUAGUCAUCUGGUCAGGCUUCCAAAAGUUGCCCUGUGAUAUUUCCUCCAUCCUUUGUAGCACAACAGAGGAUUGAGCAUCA`, the bound/input enrichment was 0.186 ratio.
`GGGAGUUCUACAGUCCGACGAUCUUCAAAGAAAAGGGCAGCUGUGUCAUUACUUGGGAGACUCUGGGGGAGGGAAAUUCUGUUCUUUUGUUUAAUUUUCCCCCAAAUGAAACCAACAUGCGUGUUGAAGAACUGAGAAAAAAUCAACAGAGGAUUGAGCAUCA` gave a bound/input enrichment of 0.247 ratio.
`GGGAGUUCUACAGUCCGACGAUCGACCCACAGUGGUCUGAGGAGCAACUCAUUGCUGCAAAAUUCUGUUUUGCUGGCCUUGUUAUAGGGCAGACUGAAGUGGACAUCAUGAGUCAUGCCACACAGGCUAUUUUUGAAAUUCUGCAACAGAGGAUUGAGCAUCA` has a bound/input enrichment of 0.158 ratio.
For `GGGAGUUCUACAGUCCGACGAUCGCACUUGGGAAUGUAAUCAGCGCCUUGGGGGACAAGAGCAAGAGAGCCACACAUGUCCCUUACAGAGACUCUAAGCUGACAAGACUCUUGCAGGAUUCCCUUGGGGGUAACAGCCAAACCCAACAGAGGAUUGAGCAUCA`, the bound/input enrichment was 0.12 ratio.
The bound/input enrichment of `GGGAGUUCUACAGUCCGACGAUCCAGCCUCAGAGCCCUGACUUCCUGGAUAUUACCAACCCUAAAGCGGUAUUAGAAAACGCAUUGAGAAACUUCGCCUGUCUGACGACUGGAGAUGUGAUUGCUAUCAACUACAAUGAGAAGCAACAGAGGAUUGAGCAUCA` is reported as 0.349 ratio.
`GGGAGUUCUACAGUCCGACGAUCACACAAUAUGAGACCAACAGCUUGGACUUCAAAGUUGGGGCAGAUGGGACAGUCUUCGCCACCCGGGAGCUGCAGGUCCCCUCCGAGCAGGUGGCGUUCACGGUGACUGCAUGGGACAGCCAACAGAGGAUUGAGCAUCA` has a bound/input enrichment of 0.202 ratio.
`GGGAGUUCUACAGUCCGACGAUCAUGGAACAUUUCGAUGCGUCACUCAGUACCUAUUUCAAGGCCUUCCUGGGCCCCCGAGAUACAAGAGUCAAAGGAUGGUUCCUCCUGGACAAUUAUAUACCCACAUUUGUCUGUUCUGUUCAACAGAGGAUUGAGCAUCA` gave a bound/input enrichment of 0.0882 ratio.
`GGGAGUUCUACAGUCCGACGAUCAAAGAGAAACUAAAGCAACUAAUAGAGAAGAGGAUUGGCAAAGAGAAUUUCAUAGAGAAACUAGGAUUUAUUAGCAAACAUGAGUUAUAUUCCAGAGGCAUCUCAGAACCCCAGCCAAACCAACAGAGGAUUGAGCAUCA` has a bound/input enrichment of 12.5 ratio.
With `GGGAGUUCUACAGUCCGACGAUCUCCUGGUCGUGUCCCAGUGCAGGACGAUGUGAACAAAUCGAAGACAUGGACCCUCUAUUGUAGUUCUUGAUUCUCGAAAUGUGCUAUUAUUGUUUGUCUUUUUUUUUUUUUUUUUAAAGACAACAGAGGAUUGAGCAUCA` the bound/input enrichment was 0.908 ratio.

Study 6
Molecule: B1 (IAA17)
Technique: two-hybrid
Reading: higher = firmer interaction
B1: IAA17 (Arabidopsis thaliana, UniProt P93830); chain MMGSVELNLRETELCLGLPGGDTVAPVTGNKRGFSETVDLKLNLNNEPANKEGSTTHDVVTFDSKEKSACPKDPAKPPAKAQVVGWPPVRSYRKNVMVSCQKSSGGPEAAAFVKVSMDGAPYLRKIDLRMYKSYDELSNALSNMFSSFTMGKHGGEEGMIDFMNERKLMDLVNSWDYVPSYEDKDGDWMLVGDVPWPMFVDTCKRLRLMKGSDAIGLAPRAMEKCKSRA
For IAA19 (Arabidopsis thaliana, UniProt O24409); relative to: out of 2 tests: positive tests read 2.
It gave 3 for positive tests (IAA18 (Arabidopsis thaliana, UniProt O24408); relative to: out of 4 tests).
For IAA32 (Arabidopsis thaliana, UniProt Q8RYC6); relative to: out of 4 tests: positive tests read 1.
For ARF7 1030-1164 (Arabidopsis thaliana, UniProt P93022); relative to: out of 4 tests: positive tests read 3.
The positive tests was 1 (ARF22 498-598 (Arabidopsis thaliana, UniProt Q9C8N7); relative to: out of 2 tests).
For ARF11 500-622 (Arabidopsis thaliana, UniProt Q9ZPY6); relative to: out of 4 tests: positive tests read 1.
ARF13 (Arabidopsis thaliana, UniProt Q9FX25); relative to: out of 4 tests — positive tests: 0.
